# Measured values pooled from the literature.
# Each line is one published result; not all experiments were run side by side. “And” joins repeats or separate records; there may be more than shown. ± marks the error that the study gave.
SMILES,cell line,test,conditions,scale,measurement,value
O=C(O)CCNc1cc(N2CCc3ccccc3CC2)nc(-c2cccnc2)n1,HBL-1,,"0.1 µM, 120 h",,viability,120%
Cc1c(C(=O)O)ccc2c3n(nc12)[C@@H]1[C@H](C3)N(CC2CC2)[C@@]2(C(=O)Nc3cc(Cl)ccc32)[C@H]1c1cccc(Cl)c1F,UM-UC-11 (MDM2-amplified),"cell proliferation, alamarBlue",120 h,,GI50,0.009 µM
NC(=O)C1CCCc2c1[nH]c1ccc(Cl)cc21 (racemic),HBL-1,,"1 µM, 120 h",,viability,104%
Cc1nn(-c2nc3ccc(Cl)c(Cl)c3[nH]2)c(O)c1C1OC(=O)c2ccccc21 (centres unmarked),RAW-ISG,IFN luciferase reporter,"40 µM, together with: HT-DNA",,inhibition,96.8% and 96.9% and 96.7%
CCc1cc2c(N3CCN(c4nncs4)CC3)ncnc2s1,HBL-1,,"0.5 µM, 120 h",,viability,132%
Cn1c(Nc2nc3ccc(C(F)(F)F)cc3s2)nc2cc(C(=O)NCCOCCO)ccc21,SH-SY5Y,"RNA-seq, item: SPOCD1 mRNA","5 µM, 5 h",relative to: untreated cells,fold change,5.12
CCc1cccc(CC)c1NC(=O)N1Cc2n[nH]c(NC(=O)c3ccc(N4CCN(C)CC4)cc3)c2C1,BT-12,"cell viability, MTT","10 µM, 72 h",,inhibition,81.6%
CC[C@H](C)n1cc(C)c2c(C(=O)NCc3c(C)cc(C)[nH]c3=O)cc(-c3ccc(N4CCNCC4)nc3)cc21,HBL-1,,"0.5 µM, 120 h",,viability,142%
CC[S+]([O-])c1nc(-c2cccc(OCc3ccccc3)c2)cc(C(F)(F)F)n1 (centres unmarked),HeLa Kyoto,"RelA nuclear import, high content imaging","15.82 µM, 3 h, together with: 1 µM PMA, 60 min",,cells with nuclear RelA,5.76% and 1.44%
C=CCn1c(=O)c2cnc(Nc3ccc(N4CCN(C)CC4)cc3)nc2n1-c1ccc2c(n1)[C@@](O)(CC)CC2,Kuramochi,flow cytometry,concentration not given,,EdU-negative S phase cells,9.41%
COc1cc2c(cc1OC)-c1[nH]nc(Nc3cccc(F)c3)c1C2,HeLa expressing Ub(G76V)-GFP,"Ub(G76V)-GFP degradation, cycloheximide chase",12 µM,,inhibition,-1%
CC1=CC(=O)CC(C)(C)[C@@]1(O)/C=C/C(C)=C\C(=O)O,HBL-1,,"1 µM, 120 h",,viability,65.1%
O=c1[nH][nH]c2nnc(-c3c(-c4ccccc4)nn4ccccc34)cc12,HeLa expressing Ub(G76V)-GFP,"Ub(G76V)-GFP degradation, cycloheximide chase",12 µM,,inhibition,25%
CC(/C=C/C(=O)NO)=C\[C@@H](C)C(=O)c1ccc(N(C)C)cc1,HBL-1,,"1 µM, 120 h",,viability,0.696%
CCn1cc(-c2cc(Cn3ccnc3)cc3c2CCN([C@H](c2cc(OC)ccn2)C2CC2)C3=O)c(C(F)(F)F)n1,HSC-3,"cell growth, inhibitor",120 h,,EC50,> 30 µM
OCc1ccc(Nc2ccc3c(Nc4cccc(C(F)(F)F)c4)ncnc3c2)cc1,MDA-MB-231,,"IC50, 24 h",,G0/G1 phase cells,22.3%
NC(=O)c1cccc(NC(=O)/C=C/c2c[nH]c3ccccc23)c1,HBL-1,,"1 µM, 120 h",,viability,106%
O=c1[nH]nc(OCCCc2ccc(Cl)cc2)c(NCc2cccnc2)c1Br,HEK293T,"RNA-seq, item: TRIB3 mRNA","10 µM, 6 h",relative to: vehicle,log2 fold change,0.79
CC/C(=N\NC(=O)C(C)Nc1ccccc1)c1ccc(O)c(C)c1O (centres unmarked),SK-OV-3,"Western blot, item: TAZ","10 µM, 6 h, 2D culture, unit not given",relative to: β-actin,protein level,1.59 ± 0.2
Nc1nc(Nc2ccc(S(N)(=O)=O)cc2)nn1C(=S)Nc1c(F)cccc1F,HeLa expressing Ub(G76V)-GFP,"Ub(G76V)-GFP degradation, cycloheximide chase",12 µM,,inhibition,-21%
O=C(/C=C/C=C/C=C/C1CCCCC1)NC1=C[C@@](O)(/C=C/C=C/C=C/C(=O)NC2=C(O)CCC2=O)[C@@H]2O[C@@H]2C1=O,ChaGo-K-1,"cell growth, CellTiter-Glo",78 h,,GI50,17.3 µM
Nc1nc(Nc2ccc(S(N)(=O)=O)cc2)nn1C(=O)c1c(F)cccc1F,BT-12,"cell viability, MTT","10 µM, 72 h",,inhibition,95.2%
Nc1nc(S)nc(O)c1N=Cc1cn(-c2ccccc2)nc1-c1ccc(Cl)cc1,CCRF-CEM,carboxy-H2DCFDA flow cytometry,"concentration not given, 18 h",,ROS-positive cells,19.6%

# Repeated from above:
SMILES,cell line,test,conditions,scale,measurement,value
Nc1nc(Nc2ccc(S(N)(=O)=O)cc2)nn1C(=O)c1c(F)cccc1F,BT-12,"cell viability, MTT","10 µM, 72 h",,inhibition,95.2%
Nc1nc(S)nc(O)c1N=Cc1cn(-c2ccccc2)nc1-c1ccc(Cl)cc1,CCRF-CEM,carboxy-H2DCFDA flow cytometry,"concentration not given, 18 h",,ROS-positive cells,19.6%
